Published values collected from several papers.
Numbered parts are unrelated; each lists some results of a single study.

Set 1
Target: Histone acetyltransferase KAT6A, winged helix 1, GST fusion (KAT6A, Homo sapiens, UniProt Q92794, residues 1-85)
Method: protein binding microarray
Molecule type: double-stranded DNA, one strand shown
Sample: in vitro
Concentration: not given
Notes: 8-mer, flanks averaged, mean of 2 arrays, mostly near background
Baseline: not given
Direction: higher = stronger binding
Quantity: E-score
Construct (chain): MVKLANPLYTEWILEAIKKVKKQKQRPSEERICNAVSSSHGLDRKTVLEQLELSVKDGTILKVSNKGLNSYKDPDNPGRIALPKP
CGGATAGC: 0.155
ACGTCTAC: -0.143
GACCGTAC: 0.215
ATCGCCGG: 0.38
AGTGTTGC: -0.0652
GTCTATTA: -0.0422
GAGCGGGA: 0.273
AGATTACA: 0.0152
AGGAGCCA: -0.308
GTGTCTAA: -0.261
ACTCCTTC: -0.244
GAGGACTC: -0.194
AGCAGGGC: -0.0498
GCATGTCC: 0.102
TCTCTAAA: -0.0334
GACTCTAA: -0.183
CCATCACA: -0.16

Set 2
Target: Prothrombin, mature alpha-thrombin (F2, Homo sapiens, UniProt P00734)
Method: aptamer microarray, sandwich
Molecule type: DNA with 2'F-ANA
Sample: in vitro
Concentration: 200 nM
Notes: whole 15-mer aptamer, many near background
Added: Cy3 exosite-II aptamer, 400 nM
Direction: higher = stronger binding
Quantity: mean fluorescence intensity
Strand: GGTTGGTGTGGTTGG
2'F-ANA at 2 5 6 10 13: 46.1 a.u.
2'F-ANA at 3 4 5 7 8 11 13: 74.7 a.u.
2'F-ANA at 1 2 3 4 5 8 9 10 11 12 14 15: 55.7 a.u.
2'F-ANA at 1 7 10 11 13 15: 51.9 a.u.
2'F-ANA at 1 3 4 5 8 10 11 12 14: 88.3 a.u.
2'F-ANA at 1 6 7 9 10 11 12: 73.2 a.u.
2'F-ANA at 2 3 4 9 13: 462 a.u.
2'F-ANA at 2 9 11 12 13 14: 158 a.u.
2'F-ANA at 2 3 5 7 9 10 11 13 15: 54.4 a.u.
2'F-ANA at 1 2 3 4 6 8 10 11 12: 66 a.u.
2'F-ANA at 1 2 3 5 6 9 10 12 15: 53.2 a.u.
2'F-ANA at 3 4 5 6 8 9 12 14 15: 97.5 a.u.
2'F-ANA at 1 4 6 8 10 12 13 14: 66.9 a.u.
2'F-ANA at 2 5 6 9 13 14 15: 45.4 a.u.
2'F-ANA at 1 3 4 7 9 11 13: 131 a.u.
2'F-ANA at 1 4 8 12 13: 258 a.u.
2'F-ANA at 2 5 6 9 10 12 14 15: 47 a.u.
2'F-ANA at 2 4 5 8 9 11 12 14 15: 48.6 a.u.
2'F-ANA at 2 4 5 6 7 10 11 14 15: 49.8 a.u.
2'F-ANA at 2 5 7 8 11: 67.7 a.u.
2'F-ANA at 2 5 7 8 9 11 13 15: 56.2 a.u.
2'F-ANA at 2 3 5 6 7 8 9 11 15: 98.9 a.u.

Set 3
Target: RNA binding protein fox-1 homolog 2, RRM domain, GST-SBP tag (RBFOX2, Homo sapiens, UniProt O43251-10, residues 100-194)
Method: RNA Bind-n-Seq
Molecule type: RNA
Sample: in vitro
Concentration: 365 nM
Notes: natural RNA segment, single round, ends assumed
Baseline: no-protein control
Direction: higher = stronger binding
Quantity: RBNS enrichment (R)
Construct (chain): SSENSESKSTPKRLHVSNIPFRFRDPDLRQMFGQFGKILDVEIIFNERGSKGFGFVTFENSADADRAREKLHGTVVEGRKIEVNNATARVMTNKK
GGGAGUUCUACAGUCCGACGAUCUGGUUACAUCCCGUCCAGUCAGGAAGGAAAAGAAAAGGAAAAGUGCCUCGCUGGCUUCCUCCUUUUCACACACUCCAAUACUUUAAUGCAUGGAACAGGUCUGCCUAUGUUGGAAUUCUCGGGUGCCAA: 0.666
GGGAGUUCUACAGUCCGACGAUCCACUUAGCUAUCUGAAACUUGAGGCAUUCCAGACCUGACAUGUUUACAAUGCACCACUGAACUUUUUUAAAUUGAAUUAAUCAGAUGUAUAUUUGUACCACUUUGGGGGGUGGAAUUCUCGGGUGCCAA: 0.63
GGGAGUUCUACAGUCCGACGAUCCUCAAGAAAUUUUGAACUGAUGAGGGAGGAAGACUGGGGAAAGAAAGAAAGCACACACAGGUACUGGACAGAGGGAUUCUGGUAUGACCUGUGGCUGUGAGGUCUCAUAUUGGAAUUCUCGGGUGCCAA: 2.28
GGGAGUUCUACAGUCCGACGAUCGACACUGGGCCUUAUAUGCUCUUUUAAAACUUCAAGGUCCACCCCCAGUAAUGCACUUCCUUCAAAAGACCCCACCUCCUAAUCCUUGUAAUCUUCCUCAAACCAGUUCUUGGAAUUCUCGGGUGCCAA: 1.04
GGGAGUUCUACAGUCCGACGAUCAACAAGUAGCAUACAUUUUGUAAUUAACAUUGAUAAACACUGUGAUUUUUUUGGUUAAGACUUUUUCAUUGAUCUGAAUUGCUUAAAUUGCAUAUAUUGUAAAAUAGGAUUGGAAUUCUCGGGUGCCAA: 0.519
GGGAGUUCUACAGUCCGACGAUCUAUGACUGAGCUUUCUAUAGGAAUUUUAUUAAAGAAUGUUUAAUUUUGUUGUCCUUCUUAAUGUUCUCAGUCAAAUAAAUGAGUGAGCUGGUUUCGGCUGCUCUUGGAAUUGGAAUUCUCGGGUGCCAA: 1.05
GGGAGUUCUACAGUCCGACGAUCAGGCCAAGUGAAAUCUAUGCCCUACGGGAGCCAUUCCCAAUCCUGAGUUUCUCAGACUUGGCAAUGGGGGUUCUGGCGGGGGUUGGAGUACAAAUCCUGCUCUGGUCUCUUGGAAUUCUCGGGUGCCAA: 0.191
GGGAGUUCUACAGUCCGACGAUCCACCAUCCGGAUGGCCUCCCACAGGCCCUCCAGCCUCAAUCCUCCGUGCUUCCUUUUUUCCUUUCCCAACAGUCCAAGAGCGCAGGAUCCAACUUUCUAGUCACGCUGUUUGGAAUUCUCGGGUGCCAA: 0.488
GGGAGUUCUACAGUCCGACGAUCGGCUCCUCUGUCCCACUGCUGCUUCUUGAGUGGGUGGAGUGGUGCUUAGAGGAUCUCCGAGAGGUCCCCGCAGCUCUAGGGAGAUCUGAUUUUGUGUUUUUUGUUUAAGUUGGAAUUCUCGGGUGCCAA: 4.63
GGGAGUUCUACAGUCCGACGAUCGUGAAAUCAAAGAUUAUAGUCAUUGUAUAAUUUGGCUUGGAGGCUAUGAAAUGUCUUUUUUUCUUUUUGGUAUUUUACAUUAUUCACAUUUUAGAAUAACAAGAACACCAUGGAAUUCUCGGGUGCCAA: 0.606
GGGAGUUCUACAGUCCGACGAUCUUUAAGCCCAACUACUUGUCAUAUAUGUCUGAAUGUCAAAAGCUGUCAGCAGCACAACACAAUCUAUAUGACUUUCUCUUUUGCACUUCACUUGUGUAUUUUACAGUGGUUGGAAUUCUCGGGUGCCAA: 0.454
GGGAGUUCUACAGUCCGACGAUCAAUGCACACCUGCUGCUCACUUCUUGUGAGGCUGCCUUUUGUGAUCAAAUAACAGGAAGUUCUGCUUUAGAGGAGGGCACGAUGACCAUGUGGCAGUCUGCAAGUGGAAUUGGAAUUCUCGGGUGCCAA: 0.417

Set 4
Target: Ras GTPase-activating protein-binding protein 1, full length (G3BP1, Homo sapiens, UniProt Q13283)
UniProt Q13283, sequence (whole entry, looked up): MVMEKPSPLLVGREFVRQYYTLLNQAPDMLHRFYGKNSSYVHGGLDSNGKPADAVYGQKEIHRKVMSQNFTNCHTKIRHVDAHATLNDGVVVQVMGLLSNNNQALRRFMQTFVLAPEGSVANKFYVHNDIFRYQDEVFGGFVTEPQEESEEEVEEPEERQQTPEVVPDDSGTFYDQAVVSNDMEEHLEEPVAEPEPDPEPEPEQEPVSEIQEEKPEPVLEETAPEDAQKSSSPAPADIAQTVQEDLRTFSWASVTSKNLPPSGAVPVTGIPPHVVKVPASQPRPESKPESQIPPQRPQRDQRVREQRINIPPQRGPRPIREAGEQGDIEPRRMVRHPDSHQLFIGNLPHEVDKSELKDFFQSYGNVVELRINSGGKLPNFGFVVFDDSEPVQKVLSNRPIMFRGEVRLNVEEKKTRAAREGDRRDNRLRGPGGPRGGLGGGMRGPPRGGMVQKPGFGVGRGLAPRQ
Method: RNA Bind-n-Seq
Molecule type: RNA
Sample: in vitro
Concentration: 200 nM
Notes: whole 134-nt RNA, ends assumed
Added: 150 mM LiCl
Baseline: input library
Direction: higher = stronger binding
Quantity: log2 enrichment
Library: 7-deaza-guanosine replaces G
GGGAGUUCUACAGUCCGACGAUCACCAUGCAGGUGAGCAUCUUUGGGAAGUGGGGCAAGGGGGGGAUAGGGAGGGGGGUAACACUUUGGGAACAGGUGGUCCCAGGUCGUUUCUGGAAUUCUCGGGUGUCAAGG: 0.633
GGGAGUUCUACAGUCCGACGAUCCAAGUCCUGUGCUACACAUCGUAUGUACCGAAUCGGGUUUGGGAGGGUUUUUGGGAAAGUAUUAUGUUACGCCGUUCGGAUCUGCACUUCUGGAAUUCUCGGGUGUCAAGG: 0.14
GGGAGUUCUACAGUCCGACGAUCACCAUGCAGGUGGGCAUCUUUGGGAAGUGCGGCAAGGGGGGGAUAGGGAGGGGGGUAACACUUUGGGAACAGGUGGUCCCAGGUCGUUUCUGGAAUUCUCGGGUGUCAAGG: 0.232
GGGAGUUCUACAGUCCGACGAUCGUCCUGUGCUACACAUCGUAUGUACCGAAUCGGGGUUUUUGGGGAAAAAGGGGAGGGGAAAGUAUUAUGUUACGCCGUUCGGAUCUGCACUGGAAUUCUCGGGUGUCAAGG: -0.265
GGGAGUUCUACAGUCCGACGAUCUUCAUGAGGACCUCCGCCUGCUCUUGGAGACCCACCUGCCGUCCAAAAAGAAGAAAGUACUCUUGGGAGUUGGGGAUCCCAAGAUUGGUGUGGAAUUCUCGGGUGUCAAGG: -0.214
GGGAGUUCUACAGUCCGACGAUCUCCUCAAGUCCUGUGCUACACAUCGUAUGUACCGAAUCGGAAGGAAGGAAGGAAAGUAUUAUGUUACGCCGUUCGGAUCUGCACUUCCAGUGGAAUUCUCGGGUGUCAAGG: 0.209
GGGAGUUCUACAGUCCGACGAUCCUCAAGUCCUGUGCUACACAUCGUAUGUACCGAAUCGGGGCGGGGCGGGCGGGAAAGUAUUAUGUUACGCCGUUCGGAUCUGCACUUCCAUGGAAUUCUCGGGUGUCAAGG: -0.134
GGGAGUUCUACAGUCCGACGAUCGUCCUGUGCUACACAUCGUAUGUACCGAAUCGGGGAAAAAGGGGUUUUUGGGGAGGGGAAAGUAUUAUGUUACGCCGUUCGGAUCUGCACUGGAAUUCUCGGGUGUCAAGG: -0.646
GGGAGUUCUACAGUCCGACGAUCUCAAGUCCUGUGCUACACAUCGUAUGUACCGAAUCGGUUUGGAAAAAGGAAAGGAAAGUAUUAUGUUACGCCGUUCGGAUCUGCACUUCCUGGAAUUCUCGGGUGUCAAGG: -0.701
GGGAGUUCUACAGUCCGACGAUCUCUCCCAUCAAAGGACGUGCACAGCCUUAUGAUCCCAAUUUUUACGAUGAAACCUAUGAUUAUGGUGGUUUUACAAUGAUGUUUGAUGACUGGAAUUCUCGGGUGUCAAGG: 1.03
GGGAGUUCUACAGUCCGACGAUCCCUGUGCUACACAUCGUAUGUACCGAAUCGGGGCCCCCCGGGCCCCCCGGGGCCCCCCGGAAAGUAUUAUGUUACGCCGUUCGGAUCUGCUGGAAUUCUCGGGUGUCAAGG: -1.26

Set 5
Target: PABPC1L2, full length, GST fusion (mouse, UniProt A0ABA7IW68)
Method: RNAcompete
Molecule type: RNA
Sample: in vitro
Concentration: 20 nM
Notes: 7-mer, probes averaged, single round
Baseline: mean of 7-mers
Direction: higher = stronger binding
Quantity: 7-mer Z-score
Construct (chain): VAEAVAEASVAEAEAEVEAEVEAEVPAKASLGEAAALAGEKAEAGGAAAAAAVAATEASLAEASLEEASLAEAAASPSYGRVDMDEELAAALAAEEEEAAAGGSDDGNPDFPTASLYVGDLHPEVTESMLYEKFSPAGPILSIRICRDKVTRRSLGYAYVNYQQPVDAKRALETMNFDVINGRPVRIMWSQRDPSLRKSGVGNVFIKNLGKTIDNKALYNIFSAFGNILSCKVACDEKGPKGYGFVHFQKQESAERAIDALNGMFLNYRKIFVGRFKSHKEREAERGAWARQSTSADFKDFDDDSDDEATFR
UAACUUA: -0.0573
AUUCUUU: -0.0881
AUGUGCC: -0.0736
AAAGGUA: 0.704
CCUGCGG: -0.202
CUCGGGA: 0.00254
GGCGAUC: 0.000733
UAGACAG: -0.0681
GGAACCC: 0.0642
UAACUAA: 0.0859
AUUUUUA: -0.0428
AUAUGGU: -0.0573
GUGCGCC: -0.11
AUACAAC: 0.211
AGGUCUG: -0.0971
UGUUUUG: -0.418
GCCCGCA: -0.213
AGAGUUC: -0.376
CCUCAGU: -0.313
UCCAAGC: -0.122
GUCGAGU: -0.079
UCCAAUG: -0.244
AUGUGCA: -0.0518
GAGCUUU: -0.307
GCCUGUA: -0.126

Repeated from above (set 5):
GGAACCC: 0.0642
UAACUAA: 0.0859
AUUUUUA: -0.0428
AUAUGGU: -0.0573
GUGCGCC: -0.11
AUACAAC: 0.211
AGGUCUG: -0.0971
UGUUUUG: -0.418
GCCCGCA: -0.213
AGAGUUC: -0.376
CCUCAGU: -0.313
UCCAAGC: -0.122
